Measurements of several laboratories.
Parts stem from different laboratories: compare values within a part only.

Set 1 — method: RNA Bind-n-Seq; form: RNA; matrix: in vitro; tested at: 365 nM; baseline: no-protein control; reading: higher = stronger binding; endpoint: RBNS enrichment (R)
Target: RNA binding protein fox-1 homolog 2, RRM domain, GST-SBP tag (RBFOX2, Homo sapiens, UniProt O43251-10, residues 100-194)
Setting: natural RNA segment, single round, ends assumed
All sequences stand within: GGGAGUUCUACAGUCCGACGAUC … UGGAAUUCUCGGGUGCCAA
Residues (chain): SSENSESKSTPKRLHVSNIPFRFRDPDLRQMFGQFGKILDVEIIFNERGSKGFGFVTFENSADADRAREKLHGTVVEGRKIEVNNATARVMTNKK
CACGGAGCUGCACAGCGUGGGGAACUCAUCCAUCACUUUCAAAAUUAGAGUCAUUUGAUCCAAGUUGGAGUCAGACACAGUAUUUGAGCUGCACGGCUUCUGGGUUCUCC: 0.592
AAAGCUGCGGUAUUAUUGGUUGAGAGGCGUCUUCUCACCUCUGGCUGAGAGCACUGGUGGGUUUGCAGGAGGCUGGGUGCUUCAGCCUACCCUUCCCCUUCCCCUCCCUU: 0.365
AGUAGCUUCCCAAGCAGCUGCUCCUCUCAGGAGCCUGCUUAACACUUGCGCCAGCUCAGAGGCCUGCCUCUAUGGUCCAGUGCAUCCCCGCUGUGCUCAGAUGCUGACGA: 0.207
GUAUUUCUUAUGACUUUGCAUAAGAACUGUUCAUCUUUGGAUCUUGAGCACCUUACAGAUAAAACUUUUUAUGGCAUCUCUUUCAUGGACAGUGAUAUUGAUCUUUUCAC: 0.318
GUCAUCUUCAUCCUCUAGGACAUUUAAAACAUGCUCAGUCCCUGGACCCAGAUGAUGGCUUCUCAGGGCAAGUCAUAAGUUAUCAGGUCCACUUGUCUGGAAGAAUAACA: 0.573
CCCUGACCUCCAGAAAGAAGCCAUGCAGUAUAAACUCCUUGUGGUGAACAAGUCUGUUCAUGGCAAACGUGGCUCGAGCCCACCAGACACCAGCGCAGAGCGGGGGCAGC: 0.328
UCAUCUAGGUUCUGAAUUACAGAAACCAACCAACCAAAAUUCUACCUUCAUUCUACAUAGACAUCAUUGGUUUUGGAGUUUAAAAAAAAAAGUCACCUUUUUGCUGAUGA: 0.379
AAGUGUGAGAUUUCUGCUUAAGAGAAGUUGUGAAAUUGCACUCCCAUCGAGGGUUCUGAGAGUGACUUUUCUCUGUUGGGUGCUUUCUUUGCCACCCUCAUAGCUUUCCC: 0.293

Set 2 — method: RNA Bind-n-Seq; form: RNA; matrix: in vitro; tested at: not given; baseline: input RNA pool; reading: higher = stronger binding; endpoint: bound/input enrichment
Target: RING finger protein unkempt homolog, zinc fingers 1-6, GST-SBP tag (UNK, Homo sapiens, UniProt Q9C0B0, residues 30-357)
Setting: RNA with constant flanks, human-mouse chimeric sites, ends assumed
All sequences stand within: GGGAGUUCUACAGUCCGACGAUC … CAACAGAGGAUUGAGCAUCA
Construct (chain): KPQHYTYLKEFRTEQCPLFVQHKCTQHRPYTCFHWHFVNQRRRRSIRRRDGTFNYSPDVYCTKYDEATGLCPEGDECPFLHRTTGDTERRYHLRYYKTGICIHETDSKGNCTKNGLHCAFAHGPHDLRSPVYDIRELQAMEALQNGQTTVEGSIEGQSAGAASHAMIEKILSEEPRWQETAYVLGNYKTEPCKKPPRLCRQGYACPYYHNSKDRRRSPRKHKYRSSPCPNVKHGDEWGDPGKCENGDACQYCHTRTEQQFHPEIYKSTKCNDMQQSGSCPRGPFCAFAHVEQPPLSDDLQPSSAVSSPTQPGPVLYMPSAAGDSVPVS
AUGGAGAAGGAUUCUCUGCCCCGCUUUGUGCGCUCUGAAUUUUAUAAGGAGUUAAUCAAGUAGUCAUCUGGUCAGGCUUCCAAAAGUUGCCCUGUGAUAUUUCCUCCAUCCUUUGUAGCA: 0.237 ratio
GAAUCCUACUCAGGCGGAUUUUGCAACACCAAGCUCACAGCAGCAGCAUCUUAGUCACAGUAGGGUAGUUUUGGGGCUCUGUGGCCAGGGUUUUAUUCAUGUGCAGGUUUGGAAAAUGUA: 1.54 ratio
GUGUCCUGCUUUCAACUUAAAUCACUGAGGCAUCUCUACUAUUCUGUGAGCAUCAGGACUGUAGCGCUGUGUCACCACAUGAGAGUUCAGAAGCAGCCUUUCUGUGGAGGGUGGGAAUGA: 0.164 ratio
UUUGUAUUUAUGCUAAGCACACGUGCUGGUGGUCUGGGCAUCAAUCUUGCGACUGCUGAUGUAGUCAUUUUGUAUGACUCAGAUUGGAAUCCGCAAGUUGAUCUUCAGGCUAUGGACCGU: 0.0954 ratio
GCACUUGGGAAUGUAAUAAGUGCCUUGGGGGACAAGAGCAAGAGAGCCACCCAUGUCCCUUACAGAGACUCUAAGCUGACAAGACUCUUGCAGGAUUCCCUUGGGGGUAACAGCCAAACC: 0.114 ratio
GGCCUGGGACCGUCCUGGCUAGUGCAAAAUAGCGGCAGUGGAGGCUCAGAGGAAAGUUUUGUUAGUGGAGGCAGUGGUAGAGGCCGUCAUGUACGGUCCUUUACUCGAUAGAUGUGUUCU: 0.954 ratio
GUGCCCUUCUCGCUGCUGCGGAGCCCGAGCUGGGAACCAUUCCGGGACUGGUACCCUGCACACAGCCGCCUCUUCGACCAGGCCUUCGGGGUGCCCCGGUUGCCCGAGGAGUGGUCGCAG: 0.0711 ratio
GUAGCUGGGACUACAGAAAUGCUGGUAAUUUCAGUCACUUGCUGAUGACUUCUGAUGUCCCAGCAAAUGUUGGCAUUGUUGACUGCUCUGUGAAGACUUCUGAGGACAUACAGCAGUGGU: 0.0818 ratio

Set 3 — method: protein binding microarray; form: double-stranded DNA, one strand shown; matrix: in vitro; tested at: not given; baseline: not given; reading: higher = stronger binding; endpoint: E-score
Target: Histone acetyltransferase KAT6A, winged helix 2, GST fusion (KAT6A, Homo sapiens, UniProt Q92794, residues 85-181)
Setting: 8-mer, flanks averaged, mean of 2 arrays, mostly near background
Target sequence (chain): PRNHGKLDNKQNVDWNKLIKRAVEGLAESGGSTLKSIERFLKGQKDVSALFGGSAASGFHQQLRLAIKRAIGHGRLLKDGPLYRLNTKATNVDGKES
AGTCCTGG: 0.0165
GGCTTGCA: 0.116
GACCGTGC: 0.0104
GTGTTTGA: 0.118
CTATTGCA: -0.06
TATTCCAA: 0.192
ATGAAAGG: 0.0138
GCACTAAA: 0.138
AGATTGAA: -0.112
AGGATTCA: -0.0113
CTTTCAAC: -0.00658
AGATGGTA: -0.124
ACACAGAT: -0.0726
AATCCTCG: -0.0561
CGGCGCAG: 0.0987
CCGTGTCC: 0.211
GGTCCTAC: -0.00172
ATGCCCGG: 0.137
AAGCATAT: 0.0365
TAGACTGA: -0.16
ACGCAATC: -0.0676
CTGTAAGC: 0.00925
GAAGTCGC: -0.151
ATGGTCCG: 0.0408
TATATTGA: -0.0473

Set 4 — method: universal PBM; form: double-stranded DNA, one strand shown; matrix: in vitro; tested at: 600 nM; reading: higher = stronger binding; endpoint: E-score
Target: Sal-like protein 4, full length isoform A (SALL4, Homo sapiens, UniProt Q9UJQ4, residues 1-1053)
Sequence of UniProt Q9UJQ4 (whole entry, looked up): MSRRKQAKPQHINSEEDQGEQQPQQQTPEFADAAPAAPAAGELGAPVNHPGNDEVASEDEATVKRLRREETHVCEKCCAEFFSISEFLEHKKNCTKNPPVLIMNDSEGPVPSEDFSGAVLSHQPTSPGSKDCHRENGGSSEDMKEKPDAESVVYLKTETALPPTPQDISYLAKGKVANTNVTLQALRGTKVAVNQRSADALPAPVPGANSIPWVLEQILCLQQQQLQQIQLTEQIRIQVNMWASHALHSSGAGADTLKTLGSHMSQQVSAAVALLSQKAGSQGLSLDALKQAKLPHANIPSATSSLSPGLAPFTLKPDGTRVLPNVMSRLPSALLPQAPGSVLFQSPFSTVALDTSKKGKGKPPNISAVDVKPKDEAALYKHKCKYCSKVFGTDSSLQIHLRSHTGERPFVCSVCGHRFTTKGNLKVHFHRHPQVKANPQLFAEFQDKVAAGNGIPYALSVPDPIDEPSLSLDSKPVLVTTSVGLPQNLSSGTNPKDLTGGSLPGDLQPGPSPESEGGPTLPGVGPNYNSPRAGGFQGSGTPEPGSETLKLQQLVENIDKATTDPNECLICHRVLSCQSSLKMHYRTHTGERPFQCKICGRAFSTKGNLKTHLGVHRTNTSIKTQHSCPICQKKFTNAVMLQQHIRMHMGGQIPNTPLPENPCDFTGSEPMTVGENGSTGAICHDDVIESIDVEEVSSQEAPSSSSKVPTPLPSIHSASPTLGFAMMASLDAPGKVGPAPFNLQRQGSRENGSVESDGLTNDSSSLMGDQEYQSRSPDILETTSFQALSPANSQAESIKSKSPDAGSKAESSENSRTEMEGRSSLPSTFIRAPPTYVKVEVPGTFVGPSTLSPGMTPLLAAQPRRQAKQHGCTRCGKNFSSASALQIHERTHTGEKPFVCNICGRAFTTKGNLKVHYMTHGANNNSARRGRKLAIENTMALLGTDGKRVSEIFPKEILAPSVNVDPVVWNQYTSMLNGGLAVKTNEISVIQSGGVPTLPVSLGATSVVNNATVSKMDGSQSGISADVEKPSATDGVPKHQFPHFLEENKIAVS
Setting: 8-mer, flanks averaged, mean of replicates
AAAAATCG: 0.237
CAGTTCTC: -0.158
AAATGGAA: 0.195
ATGGCTCG: -0.138
GAAACGCC: -0.107
CCCGAGTC: -0.159
CGCACAGC: -0.293
TGTTTCAA: 0.272
ATTGTAAC: 0.244
GGGTAGCA: -0.0927
CATAGGTC: 0.036
AGAATTAG: 0.113
CGTAACGC: -0.174
ACCCAGAC: -0.187
AAACCAAG: 0.0963
CTGATCTA: 0.0153
GAAGTCCA: -0.0683
ACCCTAAG: -0.177
AGAGAGGC: -0.21
TATACGGA: 0.111
AAGGCATA: 0.193
ACACTATC: 0.161
GTGCCTGA: -0.208
ACCTAGGG: -0.126
CCCTGTGA: -0.196

Excerpt of the above (set 3):
GACCGTGC: 0.0104
AGATGGTA: -0.124
AGGATTCA: -0.0113
TATATTGA: -0.0473
CTATTGCA: -0.06
GTGTTTGA: 0.118
ATGGTCCG: 0.0408
AATCCTCG: -0.0561
